Measurements from different studies.
Every numbered part comes from another study and shows a few of its results, in no order.

Block 1
Target: Histone acetyltransferase KAT6A, winged helix 2, GST fusion (KAT6A, Homo sapiens, UniProt Q92794, residues 85-181)
Technique: protein binding microarray
Molecule type: double-stranded DNA, one strand shown
Medium: in vitro
Concentration: not given
Setting: 8-mer, flanks averaged, mean of 2 arrays, mostly near background
Reference: not given
Reading: higher = stronger binding
Residues (chain): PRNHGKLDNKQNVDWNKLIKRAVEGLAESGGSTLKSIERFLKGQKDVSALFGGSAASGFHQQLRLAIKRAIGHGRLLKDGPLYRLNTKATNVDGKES
Oligonucleotide | E-score
GTATGTCA | -0.0585
ACCCATCC | -0.115
CCATCTGC | 0.0548
ATCTCCCG | 0.0346
ATGACAAG | -0.0788

Block 2
Target: Sal-like protein 4, full length isoform A (SALL4, Homo sapiens, UniProt Q9UJQ4, residues 1-1053)
UniProt Q9UJQ4, sequence (whole entry, looked up): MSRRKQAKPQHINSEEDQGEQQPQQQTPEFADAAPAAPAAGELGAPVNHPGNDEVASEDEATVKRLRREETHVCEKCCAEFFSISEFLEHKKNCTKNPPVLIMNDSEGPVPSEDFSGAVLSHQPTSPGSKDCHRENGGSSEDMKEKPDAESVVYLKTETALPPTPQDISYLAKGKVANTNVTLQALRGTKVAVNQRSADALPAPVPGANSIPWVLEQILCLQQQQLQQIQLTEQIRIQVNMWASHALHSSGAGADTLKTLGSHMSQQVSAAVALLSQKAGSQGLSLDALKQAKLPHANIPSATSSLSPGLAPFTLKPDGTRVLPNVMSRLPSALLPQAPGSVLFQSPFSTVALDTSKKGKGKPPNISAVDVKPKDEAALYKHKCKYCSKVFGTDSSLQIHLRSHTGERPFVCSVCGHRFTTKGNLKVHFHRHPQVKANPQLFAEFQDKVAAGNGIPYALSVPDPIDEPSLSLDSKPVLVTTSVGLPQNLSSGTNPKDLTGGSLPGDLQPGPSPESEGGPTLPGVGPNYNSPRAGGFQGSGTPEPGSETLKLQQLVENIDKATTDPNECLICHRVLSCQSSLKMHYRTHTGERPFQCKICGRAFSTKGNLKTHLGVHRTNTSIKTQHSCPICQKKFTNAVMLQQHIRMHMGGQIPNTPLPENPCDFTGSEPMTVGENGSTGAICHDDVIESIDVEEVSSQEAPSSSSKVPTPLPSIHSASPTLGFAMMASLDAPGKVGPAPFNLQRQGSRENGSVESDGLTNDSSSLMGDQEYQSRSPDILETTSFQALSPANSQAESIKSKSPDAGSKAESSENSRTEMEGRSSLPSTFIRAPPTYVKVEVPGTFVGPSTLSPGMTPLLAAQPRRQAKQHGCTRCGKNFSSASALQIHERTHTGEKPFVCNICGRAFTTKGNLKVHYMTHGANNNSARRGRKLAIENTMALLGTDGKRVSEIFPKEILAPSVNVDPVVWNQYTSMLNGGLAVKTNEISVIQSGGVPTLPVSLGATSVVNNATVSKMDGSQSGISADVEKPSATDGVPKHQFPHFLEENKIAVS
Technique: universal PBM
Molecule type: double-stranded DNA, one strand shown
Medium: in vitro
Concentration: 600 nM
Setting: 8-mer, flanks averaged, mean of replicates
Reading: higher = stronger binding
Oligonucleotide | E-score
TGAGATCA | -0.0735
CTCGTAAA | 0.0875
AACATGTG | 0.226
CATAATGA | 0.302
ACGCGGTG | -0.291
GGTCTTTA | 0.132
CGCCAGAG | -0.214

Block 3
Target: RNA binding protein fox-1 homolog 2, RRM domain, GST-SBP tag (RBFOX2, Homo sapiens, UniProt O43251-10, residues 100-194)
Technique: RNA Bind-n-Seq
Molecule type: RNA
Medium: in vitro
Concentration: 365 nM
Setting: natural RNA segment, single round, ends assumed
Reference: no-protein control
Reading: higher = stronger binding
Constant ends, left off below: GGGAGUUCUACAGUCCGACGAUC … UGGAAUUCUCGGGUGCCAA
Construct (chain): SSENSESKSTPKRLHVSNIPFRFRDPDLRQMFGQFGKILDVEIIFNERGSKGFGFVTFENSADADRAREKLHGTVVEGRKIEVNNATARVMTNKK
Oligonucleotide | RBNS enrichment (R)
CAUUUAAAAAAAUGCCAUAACUAUUAAACACCUUGUUUACAGACAGAUGAAAUAAAUUUAUUCCAACAAAUACUCCAUUGGACUCCUGUUUUUAUUAUAAAUUUUUGGCU | 0.453
CGGGGAGGAACUUCUGGGGCUCCUGCUGGGGCCACUUCCUGGGCUGCUCCCUCGGGCCUGUAGGGGGAGGUGGCCUUCUGACCCCUUUACACGUCCCCUGGGUGGACCUC | 0.988
GCUGACCACAGGCAGCUGGCAGGUCCUUUUUUCAACCAGCAGGCUAGGCUGGCCAUAGACCCAGCUCUGCCUCACCCUGCCAUGUUCCAGUAAUGGAGGCCUCCAGCCUG | 0.264
CCCGUGCGUGGCCAUACCCUGCCUCCCUCUCUGGCCCUGGGAGGGCAGCUUGGAGCCCAGGUAGGGGGCAGAGCUGUCCUCAGCUGCACUGCGGCCUGGUGGCAGUGUGG | 0.92
CUCACCGCCCACAACCCUAUCGCUGGAGCUGUGAGAGGUUUUCUACCAGCCAGGUCUUAUGUUCCCAGGCCCUGUCUUCUGGAAAGCAUUACUGGGAAGUGGACACUAGG | 0.303
UUAUAGCAACUAUAAAGUAUCAAUAAUUUUAAAUACUCAUCUCUCUUUUACUAAGAAGGGAUUUUUAAAUAUGGUGUCUACCUGGUAUCUCUCUCCCAAUAAGAAGCAGG | 0.632

Other studies, line by line
Substance | target | test | system | conditions | how to read | endpoint | value
PhoQ, residues 284 288 289 292 302 303 SNSSNI | PhoP, residues 12 14 15 18 19 TPLRH (Escherichia coli, UniProt P23836) | Sort-seq, measured: YFP reporter | E. coli | PhoQ-PhoP variant library, added: 10 µM Mg2+ | reference: high Mg2+ state, higher = stronger signaling | fold induction | 0.846
